Assay results from different studies.
Parts stem from different laboratories: compare values within a part only.

Set 1 — technique: protein-binding microarray; molecule type: hairpin DNA; sample: in vitro; tested at: not given; baseline: not given; direction: higher = stronger binding; quantity: median fluorescence
Target: Microphthalmia-associated transcription factor, full length (MITF, Homo sapiens, UniProt O75030-10, residues 1-413)
Setting: whole hairpin DNA, median over replicate spots
CACTTAGTACGTGATTTTGGTCCTCCAAAATCACGTACTAAGTGACACTC: 6390 a.u.
CACTTAGCACGTGACTTTGGTCCTCCAAAGTCACGTGCTAAGTGACACTC: 28300 a.u.
CACTTACGACGTGATTTTGGTCCTCCAAAATCACGTCGTAAGTGACACTC: 6100 a.u.
CACTTAGCATGTGATTTTGGTCCTCCAAAATCACATGCTAAGTGACACTC: 17300 a.u.
CACTTAGCACGCGATTTTGGTCCTCCAAAATCGCGTGCTAAGTGACACTC: 9830 a.u.
GAGGCCTAGCACGTGCTGCCTCCTGGCAGCACGTGCTAGGCCTCACACTC (5mC at 16): 21700 a.u.
GAGGCCTTGCACGTGCTGCCTCCTGGCAGCACGTGCAAGGCCTCACACTC: 23000 a.u.
CACTTAGCACGTCGTTTTGGTCCTCCAAAACGACGTGCTAAGTGACACTC (5mC at 13): 5050 a.u.
CACTTAGCACGGGATTTTGGTCCTCCAAAATCCCGTGCTAAGTGACACTC: 13000 a.u.
CACTTAGCCGGTGATTTTGGTCCTCCAAAATCACCGGCTAAGTGACACTC: 5450 a.u.
CACTTCGCACGTGATTTTGGTCCTCCAAAATCACGTGCGAAGTGACACTC: 26300 a.u.
GAGGCCTAGCCCGTGCTGCCTCCTGGCAGCACGGGCTAGGCCTCACACTC (5mC at 11): 7420 a.u.
GAGGCCTAGCACGTGGTGCCTCCTGGCACCACGTGCTAGGCCTCACACTC (5mC at 29): 26500 a.u.
CACTTAGCCCGTGATTTTGGTCCTCCAAAATCACGGGCTAAGTGACACTC (5mC at 9): 9750 a.u.
GAGGCCGAGCACGTGCTGCCTCCTGGCAGCACGTGCTCGGCCTCACACTC (5mC at 38): 24400 a.u.
CACTTAGCACGTGATTTTGGTCCTCCAAAATCACGTGCTAAGTGACACTC (5mC at 32): 6990 a.u.
CACTTAGCACGTGGTTTTGGTCCTCCAAAACCACGTGCTAAGTGACACTC: 20700 a.u.
CACTCGGCACGTGATTTTGGTCCTCCAAAATCACGTGCCGAGTGACACTC: 28600 a.u.
GAGGCCTAGCACCTGCTGCCTCCTGGCAGCAGGTGCTAGGCCTCACACTC (5mC at 13): 5530 a.u.
CACTTAGCACTTGATTTTGGTCCTCCAAAATCAAGTGCTAAGTGACACTC: 5010 a.u.

Set 2 — technique: universal PBM; molecule type: double-stranded DNA, one strand shown; sample: in vitro; tested at: 600 nM; direction: higher = stronger binding; quantity: E-score
Target: Sal-like protein 4, full length isoform A (SALL4, Homo sapiens, UniProt Q9UJQ4, residues 1-1053)
Chain of UniProt Q9UJQ4 (whole entry, looked up): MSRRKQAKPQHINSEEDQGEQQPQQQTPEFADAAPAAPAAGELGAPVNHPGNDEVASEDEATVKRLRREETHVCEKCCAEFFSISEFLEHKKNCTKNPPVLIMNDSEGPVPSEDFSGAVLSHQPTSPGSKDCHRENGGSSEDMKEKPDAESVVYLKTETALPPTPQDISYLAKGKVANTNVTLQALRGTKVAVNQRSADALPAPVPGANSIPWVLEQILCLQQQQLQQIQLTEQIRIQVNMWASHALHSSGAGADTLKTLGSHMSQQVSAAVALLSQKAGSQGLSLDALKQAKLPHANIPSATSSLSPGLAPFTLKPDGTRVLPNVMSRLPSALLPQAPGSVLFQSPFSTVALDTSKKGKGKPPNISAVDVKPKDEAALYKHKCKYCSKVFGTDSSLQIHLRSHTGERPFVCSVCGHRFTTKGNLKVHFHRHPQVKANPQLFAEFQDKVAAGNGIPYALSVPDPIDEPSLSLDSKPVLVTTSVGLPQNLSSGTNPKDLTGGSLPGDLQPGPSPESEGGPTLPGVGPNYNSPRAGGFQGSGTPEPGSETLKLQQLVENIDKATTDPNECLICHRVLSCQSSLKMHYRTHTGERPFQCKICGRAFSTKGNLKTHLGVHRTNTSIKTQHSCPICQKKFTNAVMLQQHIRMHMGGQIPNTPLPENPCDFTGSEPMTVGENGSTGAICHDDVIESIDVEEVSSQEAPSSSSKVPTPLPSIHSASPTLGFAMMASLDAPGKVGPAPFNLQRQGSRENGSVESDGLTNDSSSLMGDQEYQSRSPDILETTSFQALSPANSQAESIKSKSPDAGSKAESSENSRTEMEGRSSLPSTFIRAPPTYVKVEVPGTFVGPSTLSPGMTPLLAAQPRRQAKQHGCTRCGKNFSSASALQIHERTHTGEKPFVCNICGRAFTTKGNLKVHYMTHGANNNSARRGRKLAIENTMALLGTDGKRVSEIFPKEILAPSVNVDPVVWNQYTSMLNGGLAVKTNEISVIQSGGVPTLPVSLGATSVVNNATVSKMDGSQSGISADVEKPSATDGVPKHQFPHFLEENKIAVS
Setting: 8-mer, flanks averaged, mean of replicates
CCCTGTCC: -0.281
AGTAACAA: 0.161
ACACGTGT: 0.0401
CAACTCGG: -0.23
AGAATGAT: 0.253
AACTCGCC: -0.124
AGCCGGCA: -0.294
AATGACTA: 0.165
AGGTGTTC: -0.116
TATTCGCA: 0.27
GACACAGA: -0.00537
CTCCAACC: -0.0576
GATTGCAA: 0.0363
CCCATCAG: -0.289
AGCGAACT: -0.0185
GCCGTCCA: -0.098
ACATCGAC: -0.0493

Set 3 — technique: RNA Bind-n-Seq; molecule type: RNA; sample: in vitro; tested at: 365 nM; baseline: no-protein control; direction: higher = stronger binding; quantity: RBNS enrichment (R)
Target: RNA binding protein fox-1 homolog 2, RRM domain, GST-SBP tag (RBFOX2, Homo sapiens, UniProt O43251-10, residues 100-194)
Setting: natural RNA segment, single round, ends assumed
Shared flanks, not repeated: GGGAGUUCUACAGUCCGACGAUC … UGGAAUUCUCGGGUGCCAA
Residues (chain): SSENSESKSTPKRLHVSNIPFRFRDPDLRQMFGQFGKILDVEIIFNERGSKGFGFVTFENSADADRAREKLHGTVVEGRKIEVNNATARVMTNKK
UGGGCAUUUGAGAGGUACAGGCAGAAGAGAAGACAAUCAUGGUCUGAUUAGUUGAGUGACAGGAGUUAACAGUGAUAGUGGUUUGAGCUUUGUGUCUGUGACUCUUGUCU: 1.05
AGUGAAGUCCAGAUAGUUUUGCAGAUUGUUUUGCUACUUUUUCAUAUGGUAUAUGUUUCUGAUUUUUAAUAUUUCUUUUGAGAAAUUCUGAGUUCUGAUGUAGGAGCUUU: 1.07
GACCCCCACUUAGCCCUUCUCUCCUUGCAGCCUAGCAGUUUAUAGUUCUGAGAUGGAAAGUUGAAGGGGGCAAGCAAGACCUCUCCUCAGCCCAUGCCCAGCUGUCAGGA: 0.551
AGCGGGCCCUGGGGCGAGGCCAUCUCUGCCUGCCUCCCUAGCAGGCGCCAGCGGUGGAGGCUGAGUCGCAGGACACAUGCCGGCCAGUUAAUUCAUUCUCAGCCAAUGAA: 0.275
UAUUAAUUUGGAUUGCCUGAGCAGUGUGUAUCCCAUGAUGAUGAAGGGAAAUGGAGAGAUUUUUCCUUUUAGCUCUGCUGGUCAGAGAUUAAGCCACACCUUUCCAUUUU: 0.316
UCAAUAAGUCUUAUUUGCAAAAGCCAUGAUCUUCAAGGGUGAGAGAAAAAUCUGAAGGUCAGCGGAGACCUCAGAGAAAACGGGGGCAAAGUGUCUUAGGCCAGAAGUAC: 0.994
UUUAUUUUGAUUACCGAGGGUAUUUGGGGUGGGGUUGUUUUUUGAGAUGUGUAAUUCUUUUAUGGAGUUUUUAAAAAGAAUUUUCAUAUUGUUUUUCUAACAUGGCUUCA: 0.738
GAGCUUCUUUGAGGCCAAGAAGCUGGUGUAGUGCCCUCUUUGUAUGACCCUUCCUUUUUACCUCAUUUAUUUGGUACUUUCCCCACACAGUCCUUUAUCCACCUGGAUUU: 1.13
AGGGAAAACACUUGGACUCUUCUUGCAGCACUAAAACUAACCUGGAAUCGCAUGUAGUAGAGCUGAAAGAAUUAAAGACCCGGCUUACAGCUUCAGAUGAAGCUUUAAGC: 5.92
GUCAGUGUGCAGAGCUCCUUUCUGGCCACACCUCUGUGAACCCCUAUAUUUUCUGGGACUGGAAGGAAUGAAUGCCCAUGUCCUGUCUACUUCUGUGUCUGUGCUAUGUG: 4.81
UUGAAGACAUUACAGAAAUGAAGGUGUGUUCAUGGGUCAAUAACAGCAAAGUAAUUAUGGACCAAUAACUAUGUUCACCCUGAAACUUUUAUGCCACCAAUCACCAAAAA: 0.343
AGGUUGGGAAGUGACCACUUGGAUGUCUGGGCCCUGCCAAGGGGACAGGGGGGGUCAGCAGGAGGCUGGCUGCUUCCUGCCCUCCCCCCUCUCCCUGGGCCUACCAUGCU: 0.189

Set 4 — technique: RNAcompete; molecule type: RNA; sample: in vitro; tested at: 20 nM; setting: 7-mer, probes averaged, single round; baseline: mean of 7-mers; direction: higher = stronger binding; quantity: 7-mer Z-score
Target: PABPC1L2, full length, GST fusion (mouse, UniProt A0ABA7IW68)
Construct (chain): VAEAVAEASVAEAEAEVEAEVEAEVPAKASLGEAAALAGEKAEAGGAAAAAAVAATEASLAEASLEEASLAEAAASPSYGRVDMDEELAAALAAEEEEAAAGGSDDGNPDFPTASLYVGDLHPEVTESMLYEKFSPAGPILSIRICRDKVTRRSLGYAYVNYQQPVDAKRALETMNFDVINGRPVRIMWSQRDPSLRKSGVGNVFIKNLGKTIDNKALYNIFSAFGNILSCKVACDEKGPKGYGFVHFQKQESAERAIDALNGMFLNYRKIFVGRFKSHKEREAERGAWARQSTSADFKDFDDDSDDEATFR
CGCGCGU: -0.467
UACCACC: -0.244
GAAUACC: -0.17
AUUAUCU: -0.115
UCGAGGA: 0.046
GAAAUGG: 0.425
UUACCCU: -0.262
UGACGAU: -0.0699
AAUGCUU: 0.0134
AAAGAGU: 1.68
CCGUCGU: -0.441
UCCUCGC: -0.494
ACUAUAC: -0.188
ACAUCCC: -0.277
GGGUAUG: 0.0243
AAGCCAC: -0.151
AAUGUGG: 0.604
ACUGGGU: -0.0138
GGUAUCG: -0.0627
CCGUACC: -0.338
UACGACA: -0.0446
CCCAGUG: -0.128
UCAACUG: -0.237
ACUGCAC: -0.126
GAGAUCC: -0.121

Set 5 — technique: RNA Bind-n-Seq; molecule type: RNA; sample: in vitro; tested at: 200 nM; setting: whole 134-nt RNA, ends assumed; together with: 150 mM KCl; baseline: input library; direction: higher = stronger binding; quantity: log2 enrichment
Target: Fragile X messenger ribonucleoprotein 1, C-terminal low-complexity region (Fmr1, Mus musculus, UniProt P35922)
Shared flanks, not repeated: GGGAGUUCUACAGUCCGACGAUC … UGGAAUUCUCGGGUGUCAAGG
GCAGGUAGUAAAAACAAAUGGAAAUGCUUCGGAUAGUGGCAGGGGUGGGGGUUGCUAAGGAAAGGGUGGGAUGGGAGUGGGUAAAGAGUU: 0.434
GUCCUGUGCUACACAUCGUAUGUACCGAAUCGGGAAAAAAAGGGUUUUUUUGGGUGGGAAAGUAUUAUGUUACGCCGUUCGGAUCUGCAC: 0.17
CACAGACAACACGCACCCACACAGACACAGAGGGAAGGGGUUGGGAUGGGGACAGGGUGCACAGCAGGGCGGGGUAGGACAAAAGCCCCU: 0.898
UAACUUUAGAGGCGGAUCUGAUGGAUAUGGCAGUGGACGUGGAUUUGGGGAUGGCUAUAAUGGGUAUGGAGGAGGACCUGGAGGUGGCAA: 0.311
GACAGACAACACGCACCCACACAGACACAGAGGGAAGGGGUUGGGAUGGGGACAGGGUGCACAGCAGGGCGGGGUAGGACCCCAGCCCCU: 1.28
CAAGUCCUGUGCUACACAUCGUAUGUACCGAAUCGGGGCCGGGGCCGGGCCGGGGAAAGUAUUAUGUUACGCCGUUCGGAUCUGCACUUC: 0.0399
UCCUGUGCUACACAUCGUAUGUACCGAAUCAAACCCCCCCAAACCCCCAAACCCCCAAAAAAGUAUUAUGUUACGCCGUUCGGAUCUGCA: 0.0761
CUCAAGUCCUGUGCUACACAUCGUAUGUACCGAAUCGGGAGGGGAGGGAGGGGAAAGUAUUAUGUUACGCCGUUCGGAUCUGCACUUCCA: 1.23
AGUCCUGUGCUACACAUCGUAUGUACCGAAUCGGGGCCCCGGGCCCCGGGCCCCGGGGAAAGUAUUAUGUUACGCCGUUCGGAUCUGCAC: -0.628
CACAUACAACACGCACCCACACAGACACAGAGGGAAGGGGUUGGGAUGGGGACAGGGUGCACAGCAGGGCGGGGUAGGACCCCAGCCCCU: 1.32
CAAGUCCUGUGCUACACAUCGUAUGUACCGAAUCGGAGGUUUUUUUGGAAAAAGGAAAGUAUUAUGUUACGCCGUUCGGAUCUGCACUUC: -0.824
AAGUCCUGUGCUACACAUCGUAUGUACCGAAUCGGGGAAAAGGAAAAGGGAAAAGGAAAGUAUUAUGUUACGCCGUUCGGAUCUGCACUU: -0.514
AGUCCUGUGCUACACAUCGUAUGUACCGAAUCGGGAAAAAGGAAAAAGGAAAAAGGGAAAGUAUUAUGUUACGCCGUUCGGAUCUGCACU: -0.591
UCCUGUGCUACACAUCGUAUGUACCGAAUCGGGCCCCCCGGCCCCCCGGGGCCCCCCGGGAAAGUAUUAUGUUACGCCGUUCGGAUCUGC: -0.0236

Set 6 — technique: protein binding microarray; molecule type: double-stranded DNA, one strand shown; sample: in vitro; tested at: not given; baseline: not given; direction: higher = stronger binding; quantity: E-score
Target: Histone acetyltransferase KAT6A, both winged helices, GST fusion (KAT6A, Homo sapiens, UniProt Q92794, residues 1-181)
Setting: 8-mer, flanks averaged, mean of 2 arrays, mostly near background
Construct (chain): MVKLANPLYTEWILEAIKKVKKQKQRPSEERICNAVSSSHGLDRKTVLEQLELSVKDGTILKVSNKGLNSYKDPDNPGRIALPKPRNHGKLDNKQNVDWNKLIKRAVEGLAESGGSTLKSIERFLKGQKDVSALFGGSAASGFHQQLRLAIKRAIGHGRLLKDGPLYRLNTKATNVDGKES
CCTTTTAG: -0.0464
AAAGAACA: -0.102
CACAGAGC: 0.0114
GTCTCACA: 0.00449
ACATTCTG: -0.0881
AAGTGTGG: -0.24
AAAATCAA: 0.0141
CAGCGCCC: 0.0953
CCGTCCCG: 0.305
GGTTGCAA: -0.00556
GCCCGGGA: 0.247
GATGCAAC: -0.205
AGCAGCGA: -0.0508
CCGGTAAC: 0.161
AGAATTTA: -0.0969
AGTCATAT: -0.126
GATCAGTA: 0.014
CCGAAACG: 0.0751
CGTACCAC: 0.0897
AGGGGGTC: -0.154
